{"data": "Results pooled from the literature", "note": "Every numbered part comes from another study and shows a few of its results, in no order. Substitutions count along the parent as printed."}
{"data": "Sample 1", "target": "CCND2, cyclin fold, Cln2 fusion (human)", "technique": "yeast growth competition, sequencing", "medium": "yeast", "setting": "weak parent motif", "relative to": "not given", "reading": "higher = stronger binding", "starting sequence": "viral docking peptide; TSVRRALFTGGSD; partner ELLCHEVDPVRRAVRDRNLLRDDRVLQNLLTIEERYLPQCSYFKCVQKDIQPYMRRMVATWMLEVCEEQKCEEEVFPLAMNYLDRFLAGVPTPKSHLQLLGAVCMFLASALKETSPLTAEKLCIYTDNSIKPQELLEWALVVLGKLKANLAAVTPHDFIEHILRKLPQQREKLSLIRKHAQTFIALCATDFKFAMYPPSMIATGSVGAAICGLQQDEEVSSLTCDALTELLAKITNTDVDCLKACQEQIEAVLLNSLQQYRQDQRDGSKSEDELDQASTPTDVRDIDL"}
{"Change": "TSVRRALFTGGMD [S12M]", "normalised enrichment score": 0.0383}
{"Change": "TSVRRALFTGGLD [S12L]", "normalised enrichment score": -0.205}
{"Change": "TSVRRALFTGPSD [G11P]", "normalised enrichment score": 0.3}
{"Change": "TSVRMALFTGGSD [R5M]", "normalised enrichment score": 0.239}
{"Change": "TSVRRALFTGCSD [G11C]", "normalised enrichment score": 0.0853}
{"Change": "TYVRRALFTGGSD [S2Y]", "normalised enrichment score": 0.0997}
{"Change": "TSVRRALFTAGSD [G10A]", "normalised enrichment score": 0.23}
{"Change": "TSVSRALFTGGSD [R4S]", "normalised enrichment score": 0.288}
{"Change": "TSGRRALFTGGSD [V3G]", "normalised enrichment score": -0.0641}
{"Change": "TVVRRALFTGGSD [S2V]", "normalised enrichment score": -0.14}
{"Change": "TSVRRALFHGGSD [T9H]", "normalised enrichment score": 0.181}
{"Change": "TSVRRALQTGGSD [F8Q]", "normalised enrichment score": 0.103}
{"Change": "TSYRRALFTGGSD [V3Y]", "normalised enrichment score": 0.0105}
{"Change": "TDVRRALFTGGSD [S2D]", "normalised enrichment score": -0.222}
{"Change": "TIVRRALFTGGSD [S2I]", "normalised enrichment score": -0.12}
{"data": "Sample 2", "target": "CRIPT, C-terminal peptide", "technique": "DHFR complementation, deep sequencing", "medium": "yeast", "setting": "single substitutions, model-inferred values", "relative to": "wild type", "reading": "higher = weaker binding", "starting sequence": "ERBIN, PDZ domain 1 (human); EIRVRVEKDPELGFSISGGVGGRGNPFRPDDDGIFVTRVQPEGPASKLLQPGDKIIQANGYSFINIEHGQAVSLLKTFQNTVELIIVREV; partner TKNYKQTSV"}
{"Change": "G69I", "binding free energy change [kcal/mol]": 0.161}
{"Change": "F63I", "binding free energy change [kcal/mol]": -0.135}
{"Change": "P10K", "binding free energy change [kcal/mol]": -0.735}
{"Change": "K76F", "binding free energy change [kcal/mol]": 0.745}
{"Change": "A45Q", "binding free energy change [kcal/mol]": 1.54}
{"Change": "I2G", "binding free energy change [kcal/mol]": 0.519}
{"Change": "I55N", "binding free energy change [kcal/mol]": 0.505}
{"Change": "A58S", "binding free energy change [kcal/mol]": 0.152}
{"data": "Sample 3", "target": "TAR DNA-binding protein 43, full length, His tag (TARDBP, Homo sapiens, UniProt Q13148, residues 1-414)", "technique": "RNA Bind-n-Seq", "molecule type": "RNA", "medium": "in vitro", "tested at": "20 nM", "setting": "6-mer, flanks averaged, single round", "added": "150 mM KCl", "relative to": "input library", "reading": "higher = stronger binding"}
{"Strand": "ACCGUA", "6-mer enrichment (R)": 0.635}
{"Strand": "AAAGGA", "6-mer enrichment (R)": 0.828}
{"Strand": "CAAGCC", "6-mer enrichment (R)": 0.667}
{"Strand": "CCCUGU", "6-mer enrichment (R)": 0.667}
{"Strand": "CUAUUA", "6-mer enrichment (R)": 0.58}
{"Strand": "CAGCUA", "6-mer enrichment (R)": 0.642}
{"Strand": "CUCUCU", "6-mer enrichment (R)": 0.563}
{"Strand": "GGCUAU", "6-mer enrichment (R)": 0.905}
{"data": "Sample 4", "target": "XBP1, bZIP domain (human)", "technique": "DHFR protein complementation", "medium": "yeast", "setting": "single substitutions, most at no-binding floor", "relative to": "wild-type JUN-FOS pair", "reading": "higher = stronger binding", "starting sequence": "JUN, bZIP domain (human); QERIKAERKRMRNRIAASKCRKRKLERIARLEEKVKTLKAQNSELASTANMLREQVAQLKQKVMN; partner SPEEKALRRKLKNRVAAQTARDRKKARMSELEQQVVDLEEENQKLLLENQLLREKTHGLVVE"}
{"Change": "T48A", "binding fitness [natural log]": -0.817}
{"Change": "K39H", "binding fitness [natural log]": -1.32}
{"Change": "Q41W", "binding fitness [natural log]": -1.39}
{"Change": "A40E", "binding fitness [natural log]": -0.637}
{"Change": "L45C", "binding fitness [natural log]": -1.37}
{"Change": "M51R", "binding fitness [natural log]": -0.628}
{"Change": "T37Y", "binding fitness [natural log]": -0.773}
{"Change": "A46K", "binding fitness [natural log]": -0.169}
